Assay results of several laboratories.
Each numbered part is a random draw from the data of one study; scales do not carry over between parts. “And” joins repeats or separate records; there may be more than shown.
Sequence of UniProt Q9C098 (whole entry, looked up): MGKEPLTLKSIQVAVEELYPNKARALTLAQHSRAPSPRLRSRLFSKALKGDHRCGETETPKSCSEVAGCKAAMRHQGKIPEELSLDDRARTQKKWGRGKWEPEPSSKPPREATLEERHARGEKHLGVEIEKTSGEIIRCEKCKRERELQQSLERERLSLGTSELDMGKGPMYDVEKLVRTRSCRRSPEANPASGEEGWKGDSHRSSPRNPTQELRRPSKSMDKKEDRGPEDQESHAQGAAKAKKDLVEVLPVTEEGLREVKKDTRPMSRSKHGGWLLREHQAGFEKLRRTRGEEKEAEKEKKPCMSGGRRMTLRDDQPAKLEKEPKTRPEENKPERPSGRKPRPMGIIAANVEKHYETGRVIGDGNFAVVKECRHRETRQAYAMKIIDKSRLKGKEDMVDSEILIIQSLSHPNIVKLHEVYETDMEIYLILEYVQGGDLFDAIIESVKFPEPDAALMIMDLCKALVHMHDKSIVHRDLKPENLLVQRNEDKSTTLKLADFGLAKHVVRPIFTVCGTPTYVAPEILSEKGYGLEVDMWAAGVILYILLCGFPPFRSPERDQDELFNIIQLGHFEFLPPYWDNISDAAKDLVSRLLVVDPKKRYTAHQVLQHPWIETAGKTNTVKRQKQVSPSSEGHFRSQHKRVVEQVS
Sequence of UniProt P36507 (whole entry, looked up): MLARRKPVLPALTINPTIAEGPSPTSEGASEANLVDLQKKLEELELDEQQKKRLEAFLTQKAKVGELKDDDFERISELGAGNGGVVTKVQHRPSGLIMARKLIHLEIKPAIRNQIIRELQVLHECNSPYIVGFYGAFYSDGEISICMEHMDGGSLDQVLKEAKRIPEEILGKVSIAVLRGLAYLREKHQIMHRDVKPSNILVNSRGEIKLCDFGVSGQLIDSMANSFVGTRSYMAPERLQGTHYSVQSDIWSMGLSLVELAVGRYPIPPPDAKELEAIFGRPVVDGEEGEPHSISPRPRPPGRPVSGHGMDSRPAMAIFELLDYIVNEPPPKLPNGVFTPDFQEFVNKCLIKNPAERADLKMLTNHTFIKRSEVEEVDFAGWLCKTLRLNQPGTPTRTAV
Sequence of UniProt P42679 (whole entry, looked up): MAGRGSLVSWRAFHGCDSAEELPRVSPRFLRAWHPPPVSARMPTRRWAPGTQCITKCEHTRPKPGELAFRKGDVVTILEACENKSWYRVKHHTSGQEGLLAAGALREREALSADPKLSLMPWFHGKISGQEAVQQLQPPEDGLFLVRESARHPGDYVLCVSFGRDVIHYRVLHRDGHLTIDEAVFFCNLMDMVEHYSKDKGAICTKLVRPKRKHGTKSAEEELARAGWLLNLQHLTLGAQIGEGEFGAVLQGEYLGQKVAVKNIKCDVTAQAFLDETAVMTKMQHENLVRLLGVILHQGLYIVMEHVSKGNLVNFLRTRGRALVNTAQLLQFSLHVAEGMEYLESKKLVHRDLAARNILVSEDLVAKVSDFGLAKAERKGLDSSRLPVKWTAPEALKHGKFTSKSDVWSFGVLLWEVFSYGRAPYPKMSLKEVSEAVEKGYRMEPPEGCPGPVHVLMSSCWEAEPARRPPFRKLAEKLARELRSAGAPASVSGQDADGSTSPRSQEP
Sequence of UniProt P28482 (whole entry, looked up): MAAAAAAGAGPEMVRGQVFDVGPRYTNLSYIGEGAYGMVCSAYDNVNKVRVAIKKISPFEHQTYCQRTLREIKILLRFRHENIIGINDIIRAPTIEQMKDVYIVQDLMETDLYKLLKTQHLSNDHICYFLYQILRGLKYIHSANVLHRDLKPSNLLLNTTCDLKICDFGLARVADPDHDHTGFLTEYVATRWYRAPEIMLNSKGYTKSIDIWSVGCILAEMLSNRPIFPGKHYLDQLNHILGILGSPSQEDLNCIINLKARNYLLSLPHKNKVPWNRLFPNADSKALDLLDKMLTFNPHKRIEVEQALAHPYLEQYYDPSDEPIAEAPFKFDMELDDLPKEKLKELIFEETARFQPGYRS
Sequence of UniProt Q13164 (whole entry, looked up): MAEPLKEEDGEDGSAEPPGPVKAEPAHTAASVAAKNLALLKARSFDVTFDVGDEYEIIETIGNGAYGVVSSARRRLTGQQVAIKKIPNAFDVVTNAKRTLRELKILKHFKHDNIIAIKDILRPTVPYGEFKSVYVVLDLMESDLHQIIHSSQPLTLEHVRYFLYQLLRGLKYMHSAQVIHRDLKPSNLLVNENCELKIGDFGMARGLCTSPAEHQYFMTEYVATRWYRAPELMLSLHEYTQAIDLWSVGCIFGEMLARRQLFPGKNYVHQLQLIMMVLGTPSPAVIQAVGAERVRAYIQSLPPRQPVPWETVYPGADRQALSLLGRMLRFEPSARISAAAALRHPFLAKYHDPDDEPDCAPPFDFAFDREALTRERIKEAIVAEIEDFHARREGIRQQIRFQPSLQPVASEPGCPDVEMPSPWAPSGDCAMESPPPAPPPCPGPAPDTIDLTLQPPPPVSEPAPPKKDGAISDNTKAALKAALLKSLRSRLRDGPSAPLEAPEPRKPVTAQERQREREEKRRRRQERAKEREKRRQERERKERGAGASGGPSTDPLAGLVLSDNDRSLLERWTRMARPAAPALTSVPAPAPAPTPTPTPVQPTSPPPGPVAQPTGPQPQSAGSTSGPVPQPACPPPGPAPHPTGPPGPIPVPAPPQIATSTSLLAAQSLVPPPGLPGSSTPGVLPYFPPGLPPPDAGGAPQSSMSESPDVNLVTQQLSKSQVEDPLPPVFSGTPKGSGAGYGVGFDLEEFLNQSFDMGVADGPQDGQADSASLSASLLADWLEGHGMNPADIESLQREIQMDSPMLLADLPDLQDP
Sequence of UniProt Q9Y2H1 (whole entry, looked up): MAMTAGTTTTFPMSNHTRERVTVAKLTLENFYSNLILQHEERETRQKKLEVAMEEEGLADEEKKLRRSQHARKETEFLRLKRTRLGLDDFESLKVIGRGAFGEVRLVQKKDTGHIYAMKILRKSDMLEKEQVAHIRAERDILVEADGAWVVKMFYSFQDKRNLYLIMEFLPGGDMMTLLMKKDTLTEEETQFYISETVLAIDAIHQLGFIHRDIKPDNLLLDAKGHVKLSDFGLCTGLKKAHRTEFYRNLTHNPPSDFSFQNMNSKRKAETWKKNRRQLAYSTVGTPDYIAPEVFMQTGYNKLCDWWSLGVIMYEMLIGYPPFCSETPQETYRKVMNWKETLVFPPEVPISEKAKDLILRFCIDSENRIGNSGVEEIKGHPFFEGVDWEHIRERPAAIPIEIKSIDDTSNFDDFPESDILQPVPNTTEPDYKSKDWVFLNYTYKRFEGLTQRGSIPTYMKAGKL
Sequence of UniProt O15530 (whole entry, looked up): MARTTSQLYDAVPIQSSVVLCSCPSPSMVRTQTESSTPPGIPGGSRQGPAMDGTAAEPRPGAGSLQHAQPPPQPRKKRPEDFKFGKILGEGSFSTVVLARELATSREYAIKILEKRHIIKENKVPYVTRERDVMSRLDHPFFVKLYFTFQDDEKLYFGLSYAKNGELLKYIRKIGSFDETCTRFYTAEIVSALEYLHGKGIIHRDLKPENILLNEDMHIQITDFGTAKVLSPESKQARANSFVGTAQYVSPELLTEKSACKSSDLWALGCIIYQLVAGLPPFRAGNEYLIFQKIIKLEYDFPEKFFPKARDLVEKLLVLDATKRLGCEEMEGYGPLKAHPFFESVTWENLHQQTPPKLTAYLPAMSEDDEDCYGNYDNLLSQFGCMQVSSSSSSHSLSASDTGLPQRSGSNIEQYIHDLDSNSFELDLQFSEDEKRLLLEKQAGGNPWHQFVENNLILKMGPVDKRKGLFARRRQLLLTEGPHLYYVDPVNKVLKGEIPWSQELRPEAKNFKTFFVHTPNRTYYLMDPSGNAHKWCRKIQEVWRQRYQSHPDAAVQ
Sequence of UniProt Q8TBX8 (whole entry, looked up): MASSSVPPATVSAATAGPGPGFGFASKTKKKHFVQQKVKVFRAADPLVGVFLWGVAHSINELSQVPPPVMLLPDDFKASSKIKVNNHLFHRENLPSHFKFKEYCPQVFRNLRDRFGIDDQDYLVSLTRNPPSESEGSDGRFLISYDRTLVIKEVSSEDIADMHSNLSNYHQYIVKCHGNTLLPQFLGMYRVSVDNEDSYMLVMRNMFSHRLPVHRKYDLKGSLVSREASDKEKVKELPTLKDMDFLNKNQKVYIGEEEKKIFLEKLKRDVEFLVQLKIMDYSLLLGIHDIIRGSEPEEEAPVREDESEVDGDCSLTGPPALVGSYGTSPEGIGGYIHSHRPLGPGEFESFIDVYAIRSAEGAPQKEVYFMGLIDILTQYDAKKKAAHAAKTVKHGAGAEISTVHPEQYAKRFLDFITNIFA

Block 1
Cell line: mouse MPNST tumor cells
Technique: high-content immunofluorescence imaging
Refers to: nuclear SOX9
Tested at: 10 µM
Time: 12 h
Setting: mean of 2 replicates
Reference: DMSO control
Reading: higher = more nuclear SOX9
SMILES	nuclear SOX9 intensity
Cc1ccc(NC(=O)C(C)C)cc1C1CCN(Cc2ccc(Oc3ccc(F)c(F)c3)cc2)CC1	220 % of DMSO
CCOC(=O)c1ccc(NC2CCCCC2)c(N)c1	89.6 % of DMSO
C=CCOc1ccc(C2CC(=O)Nc3nc(N)[nH]c(=O)c32)cc1OC (stereo not shown)	101 % of DMSO
CCCCNc1c(C(=O)OCC)c(C)nc2c1cnn2CC	103 % of DMSO
Cc1ccc(/C=N/NC(=O)c2ccccc2Oc2ccccc2)o1	111 % of DMSO
CCCC[P+](CCCC)(CCCC)Cc1ccc(NC(=O)C(Cc2ccc3ccccc3c2)NC(=NC2CCCCC2)NC2CCCCC2)cc1 (stereo not shown)	140 % of DMSO
O=C1OC(CN2CCOCC2)CN1/N=C/c1ccc([N+](=O)[O-])o1 (stereo not shown)	104 % of DMSO
COc1cc2nc(N3CCN(C(=O)C4CCCO4)CC3)nc(N)c2cc1OC (stereo not shown)	115 % of DMSO and 107 % of DMSO
Cc1ccc(C(=O)c2cc(O)c(O)c([N+](=O)[O-])c2)cc1	99 % of DMSO
c1ccc(C(OC2CCN(CCCc3nn[nH]n3)CC2)c2ccccc2)cc1	92 % of DMSO
N=C(N)NS(=O)(=O)c1ccc(N)cc1	99.5 % of DMSO
C[C@]12CC[C@@H]3c4ccc(O)cc4CC[C@H]3[C@@H]1CC[C@@H]2O	99.9 % of DMSO
COc1c(C)cnc(Cn2cnc3c(Cl)nc(N)nc32)c1C	75 % of DMSO
COC(=O)Nc1ccc(-c2nc(N3CCOCC3)c3cnn(C4CCN(Cc5cccnc5)CC4)c3n2)cc1	210 % of DMSO
Cc1ccc(-c2n[nH]c3c2C(c2cccc(O)c2)N(c2ccc(C(=O)O)cc2)C3=O)cc1 (stereo not shown)	99.4 % of DMSO

Block 2
SMILES: Cc1c[nH]c2nccc(Oc3c(F)cc(Nc4cc(Cl)nc(N)n4)cc3F)c12
Tested at: 0.1 µM
target	test	remaining binding [%]
DCLK3 (Homo sapiens, UniProt Q9C098)	cell-free assay, competition with immobilised ligand	97
MAP2K2 (Homo sapiens, UniProt P36507)	cell-free assay, competition with immobilised ligand	91
CHEK2 (Homo sapiens, UniProt O96017)	cell-free assay, competition with immobilised ligand	89
FLT3 (Homo sapiens, UniProt P36888, ITD)	cell-free assay, competition with immobilised ligand	97
Tyrosine-protein kinase ABL1, non-phosphorylated (ABL1, Homo sapiens, UniProt P00519, T315I)	cell-free assay, competition with immobilised ligand	80
IRAK3 (Homo sapiens, UniProt Q9Y616)	cell-free assay, competition with immobilised ligand	85
MAPK1 (Homo sapiens, UniProt P28482)	cell-free assay, competition with immobilised ligand	99
RAF1 (Homo sapiens, UniProt P04049)	cell-free assay, competition with immobilised ligand	75
Tyrosine-protein kinase ABL1, phosphorylated (ABL1, Homo sapiens, UniProt P00519, F317I)	binding	55
MATK (Homo sapiens, UniProt P42679)	cell-free assay, competition with immobilised ligand	88
CIT (Homo sapiens, UniProt O14578)	cell-free assay, competition with immobilised ligand	100
SNRK (Homo sapiens, UniProt Q9NRH2)	cell-free assay, competition with immobilised ligand	77
MARK4 (Homo sapiens, UniProt Q96L34)	cell-free assay, competition with immobilised ligand	100
PDPK1 (Homo sapiens, UniProt O15530)	cell-free assay, competition with immobilised ligand	100
FLT4 (Homo sapiens, UniProt P35916)	cell-free assay, competition with immobilised ligand	98
FGFR3 (Homo sapiens, UniProt P22607, G697C)	cell-free assay, competition with immobilised ligand	100
Tyrosine-protein kinase ABL1, non-phosphorylated (ABL1, Homo sapiens, UniProt P00519, H396P)	cell-free assay, competition with immobilised ligand	82
KIT (Homo sapiens, UniProt P10721, V559D/V654A)	cell-free assay, competition with immobilised ligand	94
RPS6KB1 (Homo sapiens, UniProt P23443)	cell-free assay, competition with immobilised ligand	85
MAPK7 (Homo sapiens, UniProt Q13164)	cell-free assay, competition with immobilised ligand	82
CDK8 (Homo sapiens, UniProt P49336)	cell-free assay, competition with immobilised ligand	69
PIP4K2C (Homo sapiens, UniProt Q8TBX8)	cell-free assay, competition with immobilised ligand	100
STK38L (Homo sapiens, UniProt Q9Y2H1)	cell-free assay, competition with immobilised ligand	87
NUAK2 (Homo sapiens, UniProt Q9H093)	cell-free assay, competition with immobilised ligand	85
MTOR (Homo sapiens, UniProt P42345)	cell-free assay, competition with immobilised ligand	85

Block 3
Target: Serine/threonine-protein kinase MARK1 (MARK1, Homo sapiens, UniProt Q9P0L2)
Sequence of UniProt Q9P0L2 (whole entry, looked up): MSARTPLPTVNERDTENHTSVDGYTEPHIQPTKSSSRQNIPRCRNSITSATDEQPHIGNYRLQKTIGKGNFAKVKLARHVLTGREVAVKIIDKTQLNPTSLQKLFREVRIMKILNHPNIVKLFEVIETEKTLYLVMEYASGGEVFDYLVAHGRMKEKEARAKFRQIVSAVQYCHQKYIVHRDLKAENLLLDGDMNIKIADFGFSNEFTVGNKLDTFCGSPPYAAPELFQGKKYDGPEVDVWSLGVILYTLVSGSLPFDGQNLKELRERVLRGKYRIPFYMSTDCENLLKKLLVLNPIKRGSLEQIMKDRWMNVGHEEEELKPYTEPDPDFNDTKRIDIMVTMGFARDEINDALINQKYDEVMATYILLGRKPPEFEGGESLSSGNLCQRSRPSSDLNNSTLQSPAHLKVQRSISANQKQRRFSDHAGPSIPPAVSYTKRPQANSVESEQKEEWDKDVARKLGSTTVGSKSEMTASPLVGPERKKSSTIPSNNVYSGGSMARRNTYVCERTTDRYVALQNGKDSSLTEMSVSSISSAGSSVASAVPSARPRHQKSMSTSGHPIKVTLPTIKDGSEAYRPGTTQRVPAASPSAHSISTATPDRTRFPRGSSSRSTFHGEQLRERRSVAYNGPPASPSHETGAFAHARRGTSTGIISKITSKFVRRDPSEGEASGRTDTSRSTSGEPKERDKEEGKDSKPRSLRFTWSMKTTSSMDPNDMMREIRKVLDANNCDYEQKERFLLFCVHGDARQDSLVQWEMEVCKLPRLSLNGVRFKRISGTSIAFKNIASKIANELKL
Effect on: enzyme activity
Action: inhibitor
Tested at: 0.5 µM
Reference: control
Structure (SMILES)	remaining activity
Oc1ccc(Nc2nc(-c3ccc(Cl)cc3)cs2)cc1	93.7%
COc1ccc(S(=O)(=O)N(CCO)c2ccccc2CN(C)CC=Cc2ccc(Cl)cc2)cc1	98.4%
CC(C)(C)n1nc(Cc2cccc3ccccc23)c2c(N)ncnc21	95.8%
Fc1ccc(-c2nc3n(c2-c2ccncc2)CCS3)cc1	102%
Nc1nc(Nc2ccc(S(N)(=O)=O)cc2)nn1C(=O)c1c(F)cccc1F	64.1%
NC(=O)c1ccc(N(C(N)=O)c2c(F)cccc2F)nc1-c1ccc(F)cc1F	132%
COc1cc(Nc2c(C#N)cnc3cc(OCCCN4CCN(C)CC4)c(OC)cc23)c(Cl)cc1Cl	109%
CC[n+]1c(/C=C/N(C)c2ccccc2)n(-c2ccccc2)c2ccc(-c3nc4ccccc4s3)cc21	104%
O=S(=O)(NCCNC/C=C/c1ccc(Br)cc1)c1cccc2cnccc12	91.2%
Nc1nccc(-c2c(-c3ccc(F)cc3)ncn2C2CCNCC2)n1	97.9%
CC#CC(=O)Nc1cc2c(Nc3ccc(F)c(Cl)c3)ncnc2cn1	98.2%
Cc1cncc2cccc(S(=O)(=O)N3CCCN(C(=O)CN)C[C@@H]3C)c12	89.7%
CSc1nc(-c2ccnc(N[C@@H](C)c3ccccc3)c2)c(-c2ccc(F)cc2)[nH]1 (racemic)	95.3%
N#CC(=C(N)Sc1ccc(N)cc1)c1ccccc1C(F)(F)F	99.9%
Cc1cc(Nc2nc(-c3ccccc3)nc3ccccc23)n[nH]1	93.7%
O=C1NC(=O)C(c2c[nH]c3ccccc23)=C1c1c[nH]c2ccccc12	90.6%
Nc1ncnc2c1cnn2-c1ccccc1	94.8%
O=C1Cc2c([nH]c3ccc([N+](=O)[O-])cc23)-c2ccccc2N1	62.5%
CCc1[nH]c(-c2ccc(OC)cc2)nc1-c1ccncc1	99.2%
CC(=O)c1ccc(N2CCOCC2)cc1O	96.7%
Cc1ccc(NC2=CC(=O)c3sc(C)nc3C2=O)cc1	89.6%
CCCC(=O)Oc1ccc2[nH]c(C(=O)c3cc4ccccc4[nH]3)cc2c1	96.4%

Block 4
Species: mouse
Sample: microsomes or S9
Tested at: 2 µM
Time: 0.5 h
SMILES	remaining compound [%]
CCOC(=O)c1ncn2c(N)c(C(N)=O)nnc12	76.3
O=C(O)c1nn(-c2ccccc2)nc1-c1nn(-c2ccccc2)nc1C(=O)O	86.6
Cc1nc(C)c(C(=O)NCc2ccccc2)c(-c2ccc(Cl)cc2)c1C(=O)O	> 99
CC1CC(N(C(=O)Nc2ccccc2)c2ccccc2)c2ccccc2N1C(=O)c1ccco1 (stereo not shown)	1.04
Cc1c(C(=O)O)sc2[nH]c(=O)n(CC(C)C)c(=O)c12	88.4
CCOC(=O)c1ccc(NC(=O)c2ccc(-n3nncc3C)cc2)cc1	0.382
CN1CCC2(CCCN2Cc2ccc(Cl)cc2Br)CC1	60.4
COc1cc(/C=C/C(=O)O)cc(S(=O)(=O)N(C)CCO)c1OC	99.6
COc1ccc(-c2coc3c(O)c(OC)ccc3c2=O)cc1	12.2
Cc1nc(-c2cc(C(=O)OCc3cc(F)cc4c3OCOC4)n(C)c2)cs1	0.901
CC(C)OC(=O)N1CCC(CNc2ncnc3c(-c4ccc(S(C)(=O)=O)cc4)csc23)CC1	> 99
CN(Cc1n[nH]c2c1CCCCC2)C(=O)CCC1(Cc2ccc(-c3ccccc3)cc2)CCC(=O)N1 (stereo not shown)	0.317
Cc1cc(=O)n2nc(CN(C(=O)CC(C)C)c3ccc(F)cc3)nc2[nH]1	88.2
Cc1cc(C23CC4CC(CC(C4)C2)C3)cc2sc(N)nc12	47.9
Cc1ccc(NC(=O)CN(C)S(=O)(=O)c2ccc(Br)s2)c(Cl)c1	< 1
COc1ccc(C2C(C(=O)Nc3ccccc3OC)CCC(=O)N2c2ccc3c(c2)OCO3)cc1 (stereo not shown)	35.8
CCN1CCN(C(=O)c2ccc3c(c2)N(Cc2cccc(Cl)c2)C(=O)c2ccccc2[S+]3[O-])CC1 (stereo not shown)	0.493
COc1ccc(C)cc1/N=c1/[nH]cnc2c1oc1ccccc12	2.87
N#Cc1cnn(-c2nnc(-c3ccccc3)c(-c3ccccc3)n2)c1N	72.7
CCOc1cc(=O)n2c(c1C(=O)N1CCN(c3cccc(Cl)c3)CC1)CCCC2	14.1

For quick reference, copied from above (block 4):
SMILES	remaining compound [%]
Cc1nc(C)c(C(=O)NCc2ccccc2)c(-c2ccc(Cl)cc2)c1C(=O)O	> 99
CC1CC(N(C(=O)Nc2ccccc2)c2ccccc2)c2ccccc2N1C(=O)c1ccco1 (stereo not shown)	1.04
Cc1c(C(=O)O)sc2[nH]c(=O)n(CC(C)C)c(=O)c12	88.4
CCOC(=O)c1ccc(NC(=O)c2ccc(-n3nncc3C)cc2)cc1	0.382
CN1CCC2(CCCN2Cc2ccc(Cl)cc2Br)CC1	60.4
COc1cc(/C=C/C(=O)O)cc(S(=O)(=O)N(C)CCO)c1OC	99.6
COc1ccc(-c2coc3c(O)c(OC)ccc3c2=O)cc1	12.2
Cc1nc(-c2cc(C(=O)OCc3cc(F)cc4c3OCOC4)n(C)c2)cs1	0.901
CC(C)OC(=O)N1CCC(CNc2ncnc3c(-c4ccc(S(C)(=O)=O)cc4)csc23)CC1	> 99
CN(Cc1n[nH]c2c1CCCCC2)C(=O)CCC1(Cc2ccc(-c3ccccc3)cc2)CCC(=O)N1 (stereo not shown)	0.317
Cc1cc(=O)n2nc(CN(C(=O)CC(C)C)c3ccc(F)cc3)nc2[nH]1	88.2
Cc1cc(C23CC4CC(CC(C4)C2)C3)cc2sc(N)nc12	47.9
Cc1ccc(NC(=O)CN(C)S(=O)(=O)c2ccc(Br)s2)c(Cl)c1	< 1
